Measured values from different studies.
Numbered parts are unrelated; each lists some results of a single study. pIC50: −log10 of the molar value.
UniProt Q9H2G2, sequence (whole entry, looked up): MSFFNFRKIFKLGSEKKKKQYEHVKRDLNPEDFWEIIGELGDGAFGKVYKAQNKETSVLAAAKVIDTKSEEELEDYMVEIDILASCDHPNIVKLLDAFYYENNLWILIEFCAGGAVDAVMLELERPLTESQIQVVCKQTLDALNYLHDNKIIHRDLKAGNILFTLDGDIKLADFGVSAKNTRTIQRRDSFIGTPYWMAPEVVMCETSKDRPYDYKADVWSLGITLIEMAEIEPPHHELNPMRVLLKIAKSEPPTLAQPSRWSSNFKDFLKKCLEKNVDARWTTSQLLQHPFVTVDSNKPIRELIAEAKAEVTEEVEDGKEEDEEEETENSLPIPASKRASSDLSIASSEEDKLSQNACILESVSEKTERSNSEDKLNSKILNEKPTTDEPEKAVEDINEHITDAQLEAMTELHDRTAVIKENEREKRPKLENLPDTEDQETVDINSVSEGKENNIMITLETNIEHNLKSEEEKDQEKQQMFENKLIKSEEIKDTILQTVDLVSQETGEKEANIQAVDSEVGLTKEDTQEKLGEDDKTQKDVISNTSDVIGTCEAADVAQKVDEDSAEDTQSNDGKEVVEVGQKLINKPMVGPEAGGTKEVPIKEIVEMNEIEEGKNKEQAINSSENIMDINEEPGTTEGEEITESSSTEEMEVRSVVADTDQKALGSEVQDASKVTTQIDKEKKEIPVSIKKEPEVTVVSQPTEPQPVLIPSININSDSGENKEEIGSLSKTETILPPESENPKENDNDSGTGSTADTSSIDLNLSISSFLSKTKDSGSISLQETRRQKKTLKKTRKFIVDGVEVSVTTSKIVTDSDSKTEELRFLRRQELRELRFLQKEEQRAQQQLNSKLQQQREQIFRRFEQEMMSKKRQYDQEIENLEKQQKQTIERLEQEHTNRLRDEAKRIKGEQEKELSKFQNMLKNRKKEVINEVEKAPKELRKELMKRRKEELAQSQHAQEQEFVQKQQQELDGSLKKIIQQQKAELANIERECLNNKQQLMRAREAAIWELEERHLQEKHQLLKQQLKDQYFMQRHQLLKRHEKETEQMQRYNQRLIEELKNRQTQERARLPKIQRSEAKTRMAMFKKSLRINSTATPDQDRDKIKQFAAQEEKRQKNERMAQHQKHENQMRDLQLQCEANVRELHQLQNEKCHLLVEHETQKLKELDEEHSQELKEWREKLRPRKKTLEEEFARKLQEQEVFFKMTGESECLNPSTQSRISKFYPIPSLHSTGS
UniProt P11309, sequence (whole entry, looked up): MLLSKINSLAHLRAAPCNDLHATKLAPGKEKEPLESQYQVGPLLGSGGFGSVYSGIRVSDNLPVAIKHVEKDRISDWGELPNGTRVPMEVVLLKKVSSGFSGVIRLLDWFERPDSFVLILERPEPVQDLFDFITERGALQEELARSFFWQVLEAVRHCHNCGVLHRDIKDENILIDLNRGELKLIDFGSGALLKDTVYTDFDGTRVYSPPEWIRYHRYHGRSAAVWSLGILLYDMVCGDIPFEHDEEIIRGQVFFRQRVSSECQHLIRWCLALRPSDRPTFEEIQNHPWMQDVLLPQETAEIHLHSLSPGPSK
UniProt Q9BQI3, sequence (whole entry, looked up): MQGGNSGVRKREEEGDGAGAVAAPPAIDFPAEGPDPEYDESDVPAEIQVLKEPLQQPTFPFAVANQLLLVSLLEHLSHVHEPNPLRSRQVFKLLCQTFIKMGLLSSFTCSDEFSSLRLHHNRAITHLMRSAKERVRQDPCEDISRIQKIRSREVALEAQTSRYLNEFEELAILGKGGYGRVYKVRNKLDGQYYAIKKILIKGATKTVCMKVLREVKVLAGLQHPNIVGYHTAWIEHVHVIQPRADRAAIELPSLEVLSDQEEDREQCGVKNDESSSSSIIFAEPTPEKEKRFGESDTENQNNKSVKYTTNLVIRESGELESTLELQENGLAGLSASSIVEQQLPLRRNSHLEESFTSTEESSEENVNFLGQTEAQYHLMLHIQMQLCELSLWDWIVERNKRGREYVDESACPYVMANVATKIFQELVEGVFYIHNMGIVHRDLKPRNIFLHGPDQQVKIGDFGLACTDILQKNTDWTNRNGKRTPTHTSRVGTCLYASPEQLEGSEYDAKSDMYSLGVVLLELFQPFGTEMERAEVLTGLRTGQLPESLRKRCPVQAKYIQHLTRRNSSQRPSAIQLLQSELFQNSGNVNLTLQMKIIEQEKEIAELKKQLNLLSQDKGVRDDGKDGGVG
UniProt P68400, sequence (whole entry, looked up): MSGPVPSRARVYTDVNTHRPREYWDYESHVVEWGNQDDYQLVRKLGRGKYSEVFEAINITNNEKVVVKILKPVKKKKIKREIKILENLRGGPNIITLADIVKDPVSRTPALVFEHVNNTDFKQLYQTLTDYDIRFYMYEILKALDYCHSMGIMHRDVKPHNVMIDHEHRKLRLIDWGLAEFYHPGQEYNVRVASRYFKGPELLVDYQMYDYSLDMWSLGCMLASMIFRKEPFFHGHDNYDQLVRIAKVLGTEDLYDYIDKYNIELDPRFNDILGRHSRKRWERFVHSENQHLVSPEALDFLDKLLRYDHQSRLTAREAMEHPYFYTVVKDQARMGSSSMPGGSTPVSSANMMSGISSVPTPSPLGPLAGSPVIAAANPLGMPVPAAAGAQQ
UniProt Q8TDR2, sequence (whole entry, looked up): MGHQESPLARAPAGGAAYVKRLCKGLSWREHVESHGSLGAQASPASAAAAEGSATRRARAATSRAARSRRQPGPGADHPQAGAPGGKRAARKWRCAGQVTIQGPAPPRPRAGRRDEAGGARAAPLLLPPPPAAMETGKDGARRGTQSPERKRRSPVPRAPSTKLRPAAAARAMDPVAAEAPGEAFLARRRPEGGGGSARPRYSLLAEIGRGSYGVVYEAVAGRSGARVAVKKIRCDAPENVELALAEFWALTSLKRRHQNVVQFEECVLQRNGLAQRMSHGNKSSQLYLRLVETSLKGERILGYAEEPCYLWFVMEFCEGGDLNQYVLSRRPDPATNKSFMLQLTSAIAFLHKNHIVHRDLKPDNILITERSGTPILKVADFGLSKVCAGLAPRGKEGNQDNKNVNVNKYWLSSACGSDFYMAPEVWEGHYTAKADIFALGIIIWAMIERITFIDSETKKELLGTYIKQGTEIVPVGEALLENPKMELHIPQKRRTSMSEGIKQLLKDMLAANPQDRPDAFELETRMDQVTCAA
UniProt O94921, sequence (whole entry, looked up): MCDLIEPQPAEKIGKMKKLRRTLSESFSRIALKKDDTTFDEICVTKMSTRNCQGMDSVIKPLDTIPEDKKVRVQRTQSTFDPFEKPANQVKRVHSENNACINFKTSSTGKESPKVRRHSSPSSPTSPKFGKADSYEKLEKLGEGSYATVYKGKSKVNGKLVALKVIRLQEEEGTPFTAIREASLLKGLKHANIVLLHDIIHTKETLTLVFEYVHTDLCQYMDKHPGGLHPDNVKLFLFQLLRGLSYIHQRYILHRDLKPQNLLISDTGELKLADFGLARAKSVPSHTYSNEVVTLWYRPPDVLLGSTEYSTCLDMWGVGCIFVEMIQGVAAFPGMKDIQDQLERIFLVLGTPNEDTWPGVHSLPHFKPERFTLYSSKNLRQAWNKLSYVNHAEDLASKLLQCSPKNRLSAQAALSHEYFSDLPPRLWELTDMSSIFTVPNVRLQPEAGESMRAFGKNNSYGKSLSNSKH

Study 1
Target: Beta-1 adrenergic receptor (ADRB1, Homo sapiens, UniProt P08588)
UniProt P08588, sequence (whole entry, looked up): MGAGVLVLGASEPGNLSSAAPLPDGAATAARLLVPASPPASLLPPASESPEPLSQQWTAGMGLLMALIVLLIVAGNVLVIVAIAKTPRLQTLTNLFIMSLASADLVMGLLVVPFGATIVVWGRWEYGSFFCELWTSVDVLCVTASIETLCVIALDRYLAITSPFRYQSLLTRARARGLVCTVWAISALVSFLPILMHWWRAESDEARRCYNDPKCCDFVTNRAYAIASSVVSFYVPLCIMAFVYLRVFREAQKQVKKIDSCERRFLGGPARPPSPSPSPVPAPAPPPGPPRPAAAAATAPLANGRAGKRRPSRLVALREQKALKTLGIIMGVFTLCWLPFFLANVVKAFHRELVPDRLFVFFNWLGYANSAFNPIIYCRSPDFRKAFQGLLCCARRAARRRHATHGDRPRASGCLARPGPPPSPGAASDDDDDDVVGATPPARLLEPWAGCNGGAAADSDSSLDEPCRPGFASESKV
Mode: antagonist
Endpoint: pIC50
CC(C)c1ccc(Nc2n[nH]c(C(O)c3ccccc3)n2)cc1 (stereo not shown): ≤ 4.00
Cn1c(COc2cccc(C(F)(F)F)c2Cl)nnc1[C@H]1C[C@H](N)C1: ≤ 4.00
CC(C)(C)c1ccc(O)c(O)c1: ≤ 4.00
COc1ccccc1N1CCN(C(=O)c2ccc(C)s2)CC1: ≤ 4.00

Study 2
Organism: Sarcocystis neurona
Effect on: parasite growth
Tested at: 10 µM
Notes: first screen
Reference: untreated
Endpoint: log2 fold change
CCCN[C@H]1CCc2nc(N)sc2C1.Cl: 0.19
CN[C@@H]1[C@H](O)[C@H](NC)[C@H]2O[C@@]3(O)C(=O)C[C@@H](C)O[C@H]3O[C@@H]2[C@H]1O.Cl.Cl: 0.19
CC(C)[N+](C)(CCOC(=O)C1c2ccccc2Oc2ccccc21)C(C)C.[Br-]: 0.26
Nc1ncn([C@@H]2O[C@H](CO)[C@@H](O)[C@H]2O)c(=O)n1: 0.19
O=C(O[C@@H]1Cc2c(O)cc(O)cc2O[C@@H]1c1cc(O)c(O)c(O)c1)c1cc(O)c(O)c(O)c1: 0.17
CCN1CC(CCN2CCOCC2)C(c2ccccc2)(c2ccccc2)C1=O.Cl (stereo not shown): 0.47

Study 3
SMILES: CC(C)CC(=O)N1CCc2nc(-c3ccc(Br)cc3)nc(N(C)Cc3ccccc3)c2C1
Method: competition with immobilised ligand
Tested at: 0.1 µM
Endpoint: remaining binding
STE20-like serine/threonine-protein kinase (SLK, Homo sapiens, UniProt Q9H2G2); cell-free assay: 100%
Proto-oncogene tyrosine-protein kinase Src (SRC, Homo sapiens, UniProt P12931); cell-free assay: 100%
Cyclin-dependent kinase 14 (CDK14, Homo sapiens, UniProt O94921); cell-free assay: 100%
Serine/threonine-protein kinase 35 (STK35, Homo sapiens, UniProt Q8TDR2); cell-free assay: 96%
eIF-2-alpha kinase GCN2, C-terminal kinase domain (EIF2AK4, Homo sapiens, UniProt Q9P2K8, S808G); cell-free assay: 100%
Myosin-IIIb (MYO3B, Homo sapiens, UniProt Q8WXR4); binding: 78%
Serine/threonine-protein kinase pim-1 (PIM1, Homo sapiens, UniProt P11309); cell-free assay: 100%
Eukaryotic translation initiation factor 2-alpha kinase 1 (EIF2AK1, Homo sapiens, UniProt Q9BQI3); cell-free assay: 100%
MAP kinase-activated protein kinase 5 (MAPKAPK5, Homo sapiens, UniProt Q8IW41); cell-free assay: 100%
ALK tyrosine kinase receptor (ALK, Homo sapiens, UniProt Q9UM73, L1196M); cell-free assay: 100%
Casein kinase II subunit alpha (CSNK2A1, Homo sapiens, UniProt P68400); cell-free assay: 100%
Serine/threonine-protein kinase haspin (HASPIN, Homo sapiens, UniProt Q8TF76); cell-free assay: 100%
Serine/threonine-protein kinase OSR1 (OXSR1, Homo sapiens, UniProt O95747); cell-free assay: 100%
Insulin receptor (INSR, Homo sapiens, UniProt P06213); cell-free assay: 84%

Study 4
Target: panel of 300 human kinases
Tested at: 0.5 µM
Reading: higher = more selective
Endpoint: Gini score
CC(C)c1nn(-c2c(Cl)cccc2Cl)c2nc(Cc3ccc(OCCO)cc3)[nH]c(=O)c12: 0.72
O=C1NC(=O)c2c1c1c3ccccc3[nH]c1n1cncc21: 0.52
Cc1cc(Nc2cc(N3CCN(C)CC3)nc(Sc3ccc(NC(=O)C4CC4)cc3)n2)[nH]n1: 0.68
C[S+]([O-])c1ccc(-c2nc(-c3ccncc3)c(-c3ccc(F)cc3)[nH]2)cc1 (stereo not shown): 0.74

For quick reference, copied from above (study 3):
Cyclin-dependent kinase 14 (CDK14, Homo sapiens, UniProt O94921); cell-free assay: 100%
Serine/threonine-protein kinase haspin (HASPIN, Homo sapiens, UniProt Q8TF76); cell-free assay: 100%
